# Measurements of several laboratories.
# Every numbered part comes from another study and shows a few of its results, in no order. Changes are numbered by the printed parent chain.

# Study 1 — method: universal PBM; molecule type: double-stranded DNA, one strand shown; medium: in vitro; concentration: not given; reading: higher = stronger binding
# Target: Sal-like protein 4, full length isoform B (SALL4, Homo sapiens, UniProt Q9UJQ4-2, residues 1-616)
# Setting: 8-mer, flanks averaged, mean of replicates
# Residues (chain): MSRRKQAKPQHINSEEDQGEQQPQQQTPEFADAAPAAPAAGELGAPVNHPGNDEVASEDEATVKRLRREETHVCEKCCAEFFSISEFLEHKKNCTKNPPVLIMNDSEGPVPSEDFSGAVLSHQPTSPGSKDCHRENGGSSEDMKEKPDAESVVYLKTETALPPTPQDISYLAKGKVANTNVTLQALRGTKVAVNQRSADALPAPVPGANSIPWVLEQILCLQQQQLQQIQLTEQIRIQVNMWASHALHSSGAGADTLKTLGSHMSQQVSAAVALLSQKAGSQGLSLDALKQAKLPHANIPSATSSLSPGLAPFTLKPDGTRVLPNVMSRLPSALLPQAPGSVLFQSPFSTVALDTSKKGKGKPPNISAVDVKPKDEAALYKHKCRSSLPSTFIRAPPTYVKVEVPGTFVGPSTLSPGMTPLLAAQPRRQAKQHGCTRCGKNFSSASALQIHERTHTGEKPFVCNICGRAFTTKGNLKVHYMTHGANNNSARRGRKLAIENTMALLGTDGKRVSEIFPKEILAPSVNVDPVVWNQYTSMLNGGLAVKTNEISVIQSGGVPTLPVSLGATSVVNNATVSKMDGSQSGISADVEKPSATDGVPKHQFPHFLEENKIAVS
Strand,E-score
CTACGTCC,-0.0647
ACGGTCCG,-0.247
AGCAGGTG,-0.0754
GAACACGA,0.115
CGGGCATC,-0.323
AGGATTCA,0.134
ATCGCTAC,-0.0261
ATCGACAT,0.148
CGGAATAC,0.00108
ACTGAGGC,-0.0347
AGTGCAAA,0.189
GAGTAGCA,-0.00878

# Study 2 — target: UBE2G2 UBC core domain (UniProt P60604); method: yeast two-hybrid; medium: yeast; setting: mostly zero background; baseline: not given; reading: higher = stronger interaction
# B1: MARCHF2 RING domain (UniProt Q9P0N8); chain RLLSTVIRALDTPSDGPFCRICHEGANGECLLSPCGCTGTLGAVHKSCLEKWLSSSNTSYCELCHTEFAVEKRPRPLTEWL
# B2: UBE4B RING domain (UniProt O95155); chain KNARAEIDYSDAPDEFRDPLMDTLMTDPVRLPSGTIMDRSIILRHLLNSPTDPFNRQTLTESMLEPVPELKEQIQAWMREKQNSDH
# B3: RNF10 RING domain (UniProt Q8N5U6); chain VRICSHEVPSCPICLYPPTAAKITRCGHIFCWACILHYLSLSEKTWSKCPICYSSVHKKDLKS
# B4: RFPL3 RING domain (UniProt O75679); chain MAALFQEASSCPVCSDYLEKPMSLECGCTVCLKCINSLQKEPHGEDLLCCCCSMVSQRNKIRP
# Target sequence (chain): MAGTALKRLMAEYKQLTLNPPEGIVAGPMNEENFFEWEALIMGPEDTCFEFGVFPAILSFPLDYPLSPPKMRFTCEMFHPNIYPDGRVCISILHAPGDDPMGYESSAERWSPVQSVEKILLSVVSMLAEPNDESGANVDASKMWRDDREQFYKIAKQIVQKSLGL
Molecule,lacZ reporter activity
EIKDYKARLTCPCCNMRKKDAVLTKCFHVFCFECVKTRYDTRQRKCPKCNAAFGANDFHR (RNF20 RING domain (UniProt Q5VTR2)),0
B1 (MARCHF2 RING domain),0
PLRRLQEEKLCKICMDRHIAVVFIPCGHLVTCKQCAEAVDRCPMCSAVIDFKQRVF (BIRC8 RING domain (UniProt Q96P09)),15700
B2 (UBE4B RING domain),0
B3 (RNF10 RING domain),0
B4 (RFPL3 RING domain),0
MEEMEEELKCPVCGSFYREPIILPCSHNLCQACARNILVQTPESESPQSHRAAGSGVSDY (TRIM9 RING domain (UniProt Q9C026)),0

# Study 3 — target: CCNA2, cyclin fold, Cln2 fusion (human); method: yeast growth competition, sequencing; medium: yeast; setting: strong parent motif; baseline: not given; reading: higher = stronger binding
# Starting sequence: SAMHD1 docking peptide (human); ASKSRVQLFKDDP; partner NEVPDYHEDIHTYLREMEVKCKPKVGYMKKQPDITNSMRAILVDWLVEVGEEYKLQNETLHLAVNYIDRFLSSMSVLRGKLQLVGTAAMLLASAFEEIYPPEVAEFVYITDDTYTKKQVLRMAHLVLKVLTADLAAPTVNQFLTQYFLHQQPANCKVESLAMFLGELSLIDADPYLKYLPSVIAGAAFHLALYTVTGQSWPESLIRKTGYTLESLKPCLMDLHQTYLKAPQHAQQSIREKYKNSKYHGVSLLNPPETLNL
Change,normalised enrichment score
R5T,-0.14
F9T,-0.231
Q7P,-0.0316
R5G,0.0635
K3V,1.12
R5M,-0.106
R5V,0.72
R5D,-0.451
S4E,-0.331
V6K,5.65
F9D,0.0496
K3W,0.722
K10P,3.43
V6E,-0.108
Q7I,0.571

# Study 4 — method: RNA Bind-n-Seq; molecule type: RNA; medium: in vitro; concentration: 200 nM; setting: whole 134-nt RNA, ends assumed; with: 150 mM LiCl; baseline: input library; reading: higher = stronger binding; all molecules: 7-deaza-guanosine replaces G
# Target: Ras GTPase-activating protein-binding protein 1, full length (G3BP1, Homo sapiens, UniProt Q13283)
# Sequence of UniProt Q13283 (whole entry, looked up): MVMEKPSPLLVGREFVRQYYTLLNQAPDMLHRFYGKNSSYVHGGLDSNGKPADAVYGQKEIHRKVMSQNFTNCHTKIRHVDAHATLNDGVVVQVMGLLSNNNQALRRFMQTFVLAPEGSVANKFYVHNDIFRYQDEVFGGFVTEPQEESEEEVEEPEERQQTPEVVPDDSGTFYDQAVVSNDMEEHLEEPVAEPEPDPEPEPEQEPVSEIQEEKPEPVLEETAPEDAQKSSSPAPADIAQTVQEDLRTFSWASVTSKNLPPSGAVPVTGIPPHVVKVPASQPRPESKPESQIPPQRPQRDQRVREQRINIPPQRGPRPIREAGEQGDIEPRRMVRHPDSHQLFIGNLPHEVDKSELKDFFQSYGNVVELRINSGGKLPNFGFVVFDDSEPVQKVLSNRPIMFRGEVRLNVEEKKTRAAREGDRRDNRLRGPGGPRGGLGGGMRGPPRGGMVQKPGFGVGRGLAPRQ
# Shared flanks, not repeated: GGGAGUUCUACAGUCCGACGAUC … UGGAAUUCUCGGGUGUCAAGG
Strand,log2 enrichment
CAAGUCCUGUGCUACACAUCGUAUGUACCGAAUCGGGCCCGGGCCCGGGGCCCGGGAAAGUAUUAUGUUACGCCGUUCGGAUCUGCACUU,-1.57
CUCAAGUCCUGUGCUACACAUCGUAUGUACCGAAUCGGCCGGCCGGGGCCGGGAAAGUAUUAUGUUACGCCGUUCGGAUCUGCACUUCCA,0.64
CAAGUCCUGUGCUACACAUCGUAUGUACCGAAUCGGGGAGGGGUGGGGUUUGGGGAAAGUAUUAUGUUACGCCGUUCGGAUCUGCACUUC,-0.0847
AGUCCUGUGCUACACAUCGUAUGUACCGAAUCGGGUUUUUGGUUUUUGGUUUUUGGGGAAAGUAUUAUGUUACGCCGUUCGGAUCUGCAC,-0.271
AAGUCCUGUGCUACACAUCGUAUGUACCGAAUCGGGGAAAGGGGAAAGGGAAAGGGAAAGUAUUAUGUUACGCCGUUCGGAUCUGCACUU,0.448
UGGAACAGCAGCUGCCACUCAGGCGUAAUUCCCACCUAGAGGAGAGUUUCACAUCCACCGAAGAAUCUUCCGAAGAAAAUGUCAACUUUU,0.552
CUCAAGUCCUGUGCUACACAUCGUAUGUACCGAAUCGGGAAGGGGAAGGAAGGGAAAGUAUUAUGUUACGCCGUUCGGAUCUGCACUUCC,-0.327
GCAGGAAGUAAAAACAAAUGGAAAUGCUUCGGAUAGUGGCAGGGGUGGGGGUUGCUAAGGAAAGGGUGGGAUGGGAGUGGGUAAAGAAUU,0.06
AAGUCCUGUGCUACACAUCGUAUGUACCGAAUCAAACCCAAACCCCCAAACCCAAAAAAGUAUUAUGUUACGCCGUUCGGAUCUGCACUU,0.233
ACCAUGCCGGUGGGCAUCUUUGGGAAGUGGGGCAAGGGGGGGAUAGGGAGGGGGGUAACACUUUGGGAACAGGUGGUCCCAGGUCGUUUC,0.441
CCUGUGCUACACAUCGUAUGUACCGAAUCGGGGCCCCCCGGCCCCCCGGGGCCCCCCGGGAAAGUAUUAUGUUACGCCGUUCGGAUCUGC,0.0305

# Study 5 — method: RNA Bind-n-Seq; molecule type: RNA; medium: in vitro; concentration: not given; setting: 4-mer, random 30-nt RNA, single round; with: RocA, ADP, phosphate; baseline: input library; reading: higher = stronger binding
# Target: ATP-dependent RNA helicase DDX3X, helicase core (DDX3X, Homo sapiens, UniProt O00571, residues 132-607)
# Sequence of UniProt O00571 (132-607, looked up): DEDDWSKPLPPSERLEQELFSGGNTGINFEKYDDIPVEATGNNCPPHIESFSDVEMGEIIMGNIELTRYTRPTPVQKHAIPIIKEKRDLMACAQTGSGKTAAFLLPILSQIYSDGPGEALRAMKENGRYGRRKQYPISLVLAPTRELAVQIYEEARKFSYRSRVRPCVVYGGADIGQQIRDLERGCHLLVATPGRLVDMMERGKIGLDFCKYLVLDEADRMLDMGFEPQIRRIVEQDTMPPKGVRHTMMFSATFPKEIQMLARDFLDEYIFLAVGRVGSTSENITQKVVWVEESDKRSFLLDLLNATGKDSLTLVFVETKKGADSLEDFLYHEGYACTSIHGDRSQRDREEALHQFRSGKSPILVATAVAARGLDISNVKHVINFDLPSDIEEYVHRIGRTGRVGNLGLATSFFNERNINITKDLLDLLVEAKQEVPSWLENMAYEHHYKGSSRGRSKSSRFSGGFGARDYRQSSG
Strand,4-mer enrichment [fold]
CCUC,0.708
GGUU,1.01
GUCG,1.39
AAAU,1.04
UGCU,0.681
AAAG,1.22
CCAG,0.798
CCCU,0.834
AGUC,1.09
CAAC,0.705
GAUA,0.941
GAAG,1.59
GCCC,0.795

# Study 6 — method: competition protein-binding microarray; molecule type: double-stranded DNA, one strand shown; medium: in vitro; concentration: 2 µM; with: Pho4 competitor, 0.05 µM; reading: higher = stronger binding; shared flanks, not repeated: … GTCTTGATTCGCTTGACGCTGCTG
# Target: Centromere-binding protein 1, full length, His-tagged (CBF1, Saccharomyces cerevisiae, UniProt P17106, residues 1-351)
# Sequence of UniProt P17106 (whole entry, looked up): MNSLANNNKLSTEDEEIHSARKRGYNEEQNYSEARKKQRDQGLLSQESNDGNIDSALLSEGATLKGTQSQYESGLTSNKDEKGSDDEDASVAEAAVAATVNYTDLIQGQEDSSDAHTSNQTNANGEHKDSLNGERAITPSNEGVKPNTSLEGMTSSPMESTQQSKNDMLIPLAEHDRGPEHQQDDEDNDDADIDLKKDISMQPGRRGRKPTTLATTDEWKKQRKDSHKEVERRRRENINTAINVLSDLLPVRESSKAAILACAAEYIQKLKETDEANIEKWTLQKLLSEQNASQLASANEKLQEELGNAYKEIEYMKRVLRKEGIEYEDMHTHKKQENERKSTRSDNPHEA
# Setting: whole 60-bp probe, lowest competitor level
Strand,fluorescence intensity [a.u.]
CTTCTGTAAATTTGACATGTGGGTGGACGCGCCCCG,87.2
CGTCCTAGTGATTGTCTAGTGGGTGCCATGAGGAAG,82.2
AAATTACTAAGTTGCCAAGTGGGTGACGCCGTATGA,64.7
AAATTACTAAGTTGGCATGTGGGTGACGCCGTATGA,95.4
CCATCAATACTTTTATTCATGACAAGATGCATAGGT,96.6
GGGAAGACCATCGACCACATGTGTGCATTGTAAAGA,147
ATATACAAACTCCATCACGGGATCGATGTGGCTAAG,731
CTTCTGTAAATTTGACTCGTGGGTGGACGCGCCCCG,89.5
CTTTCCCGATCTTTTCACGTGAGATTAGCACATTTG,923
CTTTCCCGATCTTGTCACTCGACTTTAGCACATTTG,81.5
CAGATCTTATAAGGGTTCGTGATGGTCCTGAATCGA,68.9
TTCACCAGCGTTCCACACGTGTCGGCCATATCGTCA,572
TCTGGATATTCACCACACCTGATTGGGAAGACTCAT,101
GCCCGGACACAGGGAATCGTGCGGAGCCGGGGATAA,54.5
AGTAAAAGAGAAAAACACGTGTGGAGAACTTTTCAT,864
AAATTAGTAACGCATAACGTGTTTTCTGCGACAAGC,119

# Study 7 — method: protein binding microarray; molecule type: double-stranded DNA, one strand shown; medium: in vitro; concentration: not given; baseline: not given; reading: higher = stronger binding
# Target: Histone acetyltransferase KAT6A, winged helix 2, GST fusion (KAT6A, Homo sapiens, UniProt Q92794, residues 85-181)
# Setting: 8-mer, flanks averaged, mean of 2 arrays, mostly near background
# Target sequence (chain): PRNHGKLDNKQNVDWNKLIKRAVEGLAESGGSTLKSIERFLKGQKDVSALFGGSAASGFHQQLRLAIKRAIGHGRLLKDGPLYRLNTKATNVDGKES
Strand,E-score
ACTGTCAA,-0.21
CGGTGTTC,0.0708
GTTACAAA,0.0559
AGCGGTCA,0.00991
AGCGCGCT,0.0154
CCAAGCGG,0.043
GACGCTAA,-0.0836
AATCCAGC,0.0548
CCAGCTCC,-0.0391
GAACGGTC,-0.109
CATGAGAA,0.0118
CCGATAGC,-0.227
ATCGTTCA,-0.106
CCTCTATA,-0.0242
CCAATGGG,-0.0331
CATCGGGC,0.0853
GCGCGAAA,0.227
AGGCAGTC,-0.0803
CCCGACAG,0.113
ACAAACTA,0.0685
ACCTAAGG,-0.0816
GTTGGAGA,0.118
ACGATGTC,-0.218
AAGCAAGA,0.0292
GGCCCTAC,-0.088

# For quick reference, copied from above (study 4):
Strand,log2 enrichment
GCAGGAAGUAAAAACAAAUGGAAAUGCUUCGGAUAGUGGCAGGGGUGGGGGUUGCUAAGGAAAGGGUGGGAUGGGAGUGGGUAAAGAAUU,0.06
AAGUCCUGUGCUACACAUCGUAUGUACCGAAUCAAACCCAAACCCCCAAACCCAAAAAAGUAUUAUGUUACGCCGUUCGGAUCUGCACUU,0.233
UGGAACAGCAGCUGCCACUCAGGCGUAAUUCCCACCUAGAGGAGAGUUUCACAUCCACCGAAGAAUCUUCCGAAGAAAAUGUCAACUUUU,0.552
CUCAAGUCCUGUGCUACACAUCGUAUGUACCGAAUCGGCCGGCCGGGGCCGGGAAAGUAUUAUGUUACGCCGUUCGGAUCUGCACUUCCA,0.64
CAAGUCCUGUGCUACACAUCGUAUGUACCGAAUCGGGCCCGGGCCCGGGGCCCGGGAAAGUAUUAUGUUACGCCGUUCGGAUCUGCACUU,-1.57
CUCAAGUCCUGUGCUACACAUCGUAUGUACCGAAUCGGGAAGGGGAAGGAAGGGAAAGUAUUAUGUUACGCCGUUCGGAUCUGCACUUCC,-0.327
AGUCCUGUGCUACACAUCGUAUGUACCGAAUCGGGUUUUUGGUUUUUGGUUUUUGGGGAAAGUAUUAUGUUACGCCGUUCGGAUCUGCAC,-0.271
CCUGUGCUACACAUCGUAUGUACCGAAUCGGGGCCCCCCGGCCCCCCGGGGCCCCCCGGGAAAGUAUUAUGUUACGCCGUUCGGAUCUGC,0.0305
AAGUCCUGUGCUACACAUCGUAUGUACCGAAUCGGGGAAAGGGGAAAGGGAAAGGGAAAGUAUUAUGUUACGCCGUUCGGAUCUGCACUU,0.448
CAAGUCCUGUGCUACACAUCGUAUGUACCGAAUCGGGGAGGGGUGGGGUUUGGGGAAAGUAUUAUGUUACGCCGUUCGGAUCUGCACUUC,-0.0847
ACCAUGCCGGUGGGCAUCUUUGGGAAGUGGGGCAAGGGGGGGAUAGGGAGGGGGGUAACACUUUGGGAACAGGUGGUCCCAGGUCGUUUC,0.441
